Published values of several laboratories.
Numbered parts are unrelated; each lists some results of a single study. Substitutions count along the parent as printed.

Sample 1
Target: RING finger protein unkempt homolog, zinc fingers 1-6, GST-SBP tag (UNK, Homo sapiens, UniProt Q9C0B0, residues 30-357)
Chain of UniProt Q9C0B0 (30-357, looked up): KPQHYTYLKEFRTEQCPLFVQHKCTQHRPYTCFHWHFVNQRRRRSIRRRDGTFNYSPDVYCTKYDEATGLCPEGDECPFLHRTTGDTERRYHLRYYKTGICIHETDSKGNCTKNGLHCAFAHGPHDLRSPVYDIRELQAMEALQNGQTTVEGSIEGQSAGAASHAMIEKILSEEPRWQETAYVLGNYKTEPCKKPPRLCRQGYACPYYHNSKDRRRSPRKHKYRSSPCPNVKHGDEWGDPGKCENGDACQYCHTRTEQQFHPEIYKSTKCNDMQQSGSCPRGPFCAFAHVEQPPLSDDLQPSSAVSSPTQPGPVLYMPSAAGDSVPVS
Technique: RNA Bind-n-Seq
Molecule type: RNA
Matrix: in vitro
Tested at: not given
Notes: RNA with constant flanks, ends assumed
Relative to: input RNA pool
Reading: higher = stronger binding
Measurement: bound/input enrichment
All sequences stand within: GGGAGUUCUACAGUCCGACGAUC … CAACAGAGGAUUGAGCAUCA
CCCAACAACACAGUAGUUGGGUCAUCAUAUGUACUUUUUGUCUUAUCGAUUUUCUUCACAACCGCCGGACUUCUGUUUGCUGGCAAAGUCUGUUUACCAGGCUGACGAAUGUCUAAACGG: 0.119 ratio
AAGCCAUUCCCAGAGCAUCUCUACCAGCGUGUCAGGAUCAGAAGCAAGGUUUUCGGGUUGCACCGUGUUUCCAGGGGCAUGUACGAUGGGCCUGUGUACGAGGUGCCAGCUACACCCAAA: 0.102 ratio
AUCAAGGGUAAAAUUCCAUUCUGAUAUCAAAAUGCAGUAUUCGCACCACUGUGAGCACCUUUCCGAGAGACUGAACAAACAGCGGGAAGCAGGUUUUCUCUGUGACUGUACCAUAGUGAU: 0.246 ratio
AACAUUUCUACUUUACCAGAGAGUCUUUUAUCAAGUCUUGUGAAACUGAAUAGUUUGACCUCCGCCCGAAAUUGCUUCCAGUUGUAUCCAGUGGGUGGUCCAUCUCAGUUUUCUACCAUC: 0.214 ratio
GAUCCAGGCAGUAAAGAUCCAGAAGAAGAUUACCCCAAAUUUGGACUUUUGGAUCAGGACCUCCGUAACAUUGGUCCUGCUUAUGACAACCAAAAACAGAGCAGUGCUGUGUCUACUAGU: 0.231 ratio
AGCUAUGAUGAGAGCUAUUAUCAUCUGUGGUGGGAAAAGCUAUGUAAAUAGGUAGAUUGUACCGAGAGACUAUCUUGUGUUGUGCCUGUAUGAAUUUUUAAAAGUUGUUGACUGGAUUUU: 0.237 ratio
AAUAUCAACUAAAAUAUCAUAGUUCUGUGGUAGACAUUGUUUUAUAAUGAAAUAACUGCAACCCGAGAAAACUGUAUAAAAACAUUAAAUUGUCAGUAUUUUUGUAAGGUUCCAUUUUGU: 0.482 ratio
GAUCGAACCUGGUCUUUGUGGAAGAGACAGGAUGCGACUUCCUCGGAGUUUGAUCCAUUUUUCCGUCUCUUUGCAUUCACCAACAAAAUUACUUCUGUGCAUAGUAGAAUCAUUUGGUCU: 0.809 ratio
UUUGGCAUCACCCAGCGACCAGCGUACAUUAACAUGGUACCUAGCCUGUCGCAGUUCACCCGCAUUUACACACCUUUGGCCAACAUUUCUUCUGAGUAUCCAAUGCAAAGAUCCAUGCCA: 0.215 ratio
AGAGCGUUUGUUAUAAGACGUAACGUAACCUACUGUUCAUGUUUGCUCUGGUCUGAAGUGUUCCGCUGUUGAGCUGGAUUCCUUAGGAGACCAAAUUAAGAUGGCUUAAAUUACAUCUUA: 0.323 ratio
GAAACUAAACAUCACAGCAAGCUCUAUCUCUGAGCUAUAAUUUGUUUUUAAUGCAAAGACACCCGUUUGAUAAUAUAUACUGUAAUCCUGAAACAUUUGUGUUACUUACCUUUGGAGGUA: 0.111 ratio

Sample 2
Target: CCNB1, cyclin fold, Cln2 fusion (human)
Technique: yeast growth competition, sequencing
Matrix: yeast
Notes: weak parent motif
Relative to: not given
Reading: higher = stronger binding
Measurement: normalised enrichment score
Starting sequence: ASZ1 docking peptide (human); GFGFLLFICKLTF
K10A: 0.646
F2A: 0.3
F7A: -0.0845
L5A: 0.36
G3A: 0.756
F4A: 0.327
L6A: 0.572

Sample 3
Target: Hepatocyte nuclear factor 3-beta, forkhead domain (FOXA2, Homo sapiens, UniProt Q9Y261, residues 142-269)
Technique: protein-binding microarray
Molecule type: double-stranded DNA, one strand shown
Matrix: in vitro
Tested at: not given
Notes: k-mer, scored over probes, only values ≥0.25
Reading: higher = stronger binding
Measurement: E-score
Target sequence (chain): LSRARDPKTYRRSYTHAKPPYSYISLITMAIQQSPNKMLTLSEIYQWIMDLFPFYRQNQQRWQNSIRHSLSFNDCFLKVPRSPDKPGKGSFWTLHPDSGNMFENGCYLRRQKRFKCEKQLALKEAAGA
GTGATGTA: 0.281
ATTAGATG: 0.299
TGCAATAA: 0.277
TATGACAA: 0.277
ATTACCAC: 0.268
ATGCATTA: 0.283
AACAATAT: 0.398
ATTTAATG: 0.289
AATTGTTC: 0.268
GTTTACCA: 0.275
ATATGGTC: 0.296
GTATTGTA: 0.33
CATAATAA: 0.26
ACTACATA: 0.317
ATCTCAAC: 0.296
AATGATTG: 0.279
ATATATGG: 0.402

Sample 4
Target: BATF3, bZIP domain (human)
Technique: DHFR protein complementation
Matrix: yeast
Notes: single substitutions, most at no-binding floor
Relative to: wild-type JUN-FOS pair
Reading: higher = stronger binding
Measurement: binding fitness
Starting sequence: JUN, bZIP domain (human); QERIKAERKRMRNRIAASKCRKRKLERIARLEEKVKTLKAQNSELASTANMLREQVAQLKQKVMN; partner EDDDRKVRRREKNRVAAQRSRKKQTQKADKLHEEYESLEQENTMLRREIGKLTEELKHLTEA
A40W: 0.125 natural log
Q55K: 0.255 natural log
E32A: 0.441 natural log
L38N: -0.221 natural log
A46M: 0.267 natural log
A46L: 0.209 natural log
S47T: 0.179 natural log
S43H: 0.212 natural log
S43L: 0.175 natural log
T48I: 0.0674 natural log
I28M: 0.232 natural log
S47Y: 0.187 natural log
A40R: 0.211 natural log
V56C: 0.102 natural log
A49D: -0.442 natural log
A29P: 0.174 natural log
A29E: 0.0759 natural log
V56Q: -0.265 natural log
L38S: 0.11 natural log
I28S: 0.18 natural log
L31H: 0.106 natural log
L31R: 0.0927 natural log
E54R: 0.121 natural log
E33Q: 0.084 natural log
I28N: 0.177 natural log

Sample 5
Target: ABI1, truncated, D143A, DHFR fusion (Arabidopsis thaliana)
Technique: DHFR PCA, deep sequencing
Matrix: yeast
Notes: methotrexate growth selection, single substitutions
Together with: (+)-ABA 17 µM
Relative to: wild-type fitted maximum
Reading: higher = stronger binding
Measurement: relative binding score
Starting sequence: PYL1, truncated, DHFR fusion (Arabidopsis thaliana); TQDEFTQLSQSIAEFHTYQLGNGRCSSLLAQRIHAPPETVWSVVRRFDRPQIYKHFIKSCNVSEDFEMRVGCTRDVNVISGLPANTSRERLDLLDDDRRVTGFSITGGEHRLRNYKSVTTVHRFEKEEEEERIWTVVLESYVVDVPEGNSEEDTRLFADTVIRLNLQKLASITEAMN; partner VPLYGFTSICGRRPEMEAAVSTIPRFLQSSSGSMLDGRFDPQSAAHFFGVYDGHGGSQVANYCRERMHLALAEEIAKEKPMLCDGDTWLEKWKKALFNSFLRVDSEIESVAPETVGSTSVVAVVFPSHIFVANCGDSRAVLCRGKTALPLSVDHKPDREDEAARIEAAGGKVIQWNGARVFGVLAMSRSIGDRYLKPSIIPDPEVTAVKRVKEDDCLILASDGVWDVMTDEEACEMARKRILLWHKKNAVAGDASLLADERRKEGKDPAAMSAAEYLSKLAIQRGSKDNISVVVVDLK
S87Y: 30.4%
R111T: -2.71%
N149S: 77.4%
R24D: 34.7%
R111L: 45.9%
L28V: 79.2%
D97P: 39.9%
L20E: 86.5%
L169V: 2.56%
I57H: -44.4%
N61V: 90.5%
D65T: 74.5%
L20S: 85.3%
K54R: 17.9%
L82Q: 18.6%

Sample 6
Target: Ras GTPase-activating protein-binding protein 1, C-terminal RGG region (G3BP1, Homo sapiens, UniProt Q13283)
Chain of UniProt Q13283 (whole entry, looked up): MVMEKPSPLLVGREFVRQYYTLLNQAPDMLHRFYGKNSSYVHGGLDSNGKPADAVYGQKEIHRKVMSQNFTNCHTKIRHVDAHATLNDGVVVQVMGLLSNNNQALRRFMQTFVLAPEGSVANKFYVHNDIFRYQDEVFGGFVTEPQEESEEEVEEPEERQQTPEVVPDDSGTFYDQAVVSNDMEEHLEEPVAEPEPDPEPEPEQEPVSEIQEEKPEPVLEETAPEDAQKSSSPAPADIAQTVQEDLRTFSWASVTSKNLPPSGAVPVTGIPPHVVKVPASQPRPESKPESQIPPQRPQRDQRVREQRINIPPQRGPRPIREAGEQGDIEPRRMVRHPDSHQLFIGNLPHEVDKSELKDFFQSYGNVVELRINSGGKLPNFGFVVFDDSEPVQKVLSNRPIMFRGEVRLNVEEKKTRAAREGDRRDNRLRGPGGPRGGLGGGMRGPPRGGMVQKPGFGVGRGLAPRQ
Technique: RNA Bind-n-Seq
Molecule type: RNA
Matrix: in vitro
Tested at: 1 µM
Notes: whole 134-nt RNA, ends assumed
Together with: 150 mM KCl
Relative to: input library
Reading: higher = stronger binding
Measurement: log2 enrichment
All sequences stand within: GGGAGUUCUACAGUCCGACGAUC … UGGAAUUCUCGGGUGUCAAGG
UCUUUAUUUGAGCCAGUCUUGCAAGGUUAACUUCUCACUGGGCCUAGUGUGGUGCCCAGGUUUUUGCCUUGCUUCACUUCUGUCUCUACA: -1.66
UUGGACUUGGAGCAUCUGCUCAGUGAGUCUCCAGAAGGAAGUCCCUUCCGAGAUAUGGAUGAUGGAAGUGAUUCCCUUGGGGUGGGAUUG: -1.53
CCUGUGCUACACAUCGUAUGUACCGAAUCGGGGUUUGGGGUUUUUUUGGGGUUUUUGGGGAAAGUAUUAUGUUACGCCGUUCGGAUCUGC: 1.12
CAAGUCCUGUGCUACACAUCGUAUGUACCGAAUCGGGGAAAGGGGUGGGGAGGGGAAAGUAUUAUGUUACGCCGUUCGGAUCUGCACUUC: 2.85
GUCCUGUGCUACACAUCGUAUGUACCGAAUCGGGAAAAAAAGGGAGGGUUUUUUUGGGAAAGUAUUAUGUUACGCCGUUCGGAUCUGCAC: 0.205
CAAGUCCUGUGCUACACAUCGUAUGUACCGAAUCGGGAAAAAGGGUGGGAAAGGGAAAGUAUUAUGUUACGCCGUUCGGAUCUGCACUUC: 1.55
ACCAUGCAGGUGGGCAUCUUUGGGAAGUGGGGCAAGGGGGGGAUAGGGACGGGGGUAACACUUUGGGAACAGGUGGUCCCAGGUCGUUUC: 2.04
AGCCGAGCGGGAACGGAACCGACAGCUGGAGCGAGAGAAACGUCGGGAGCACAGUCGGGAGAGGGACAGGGAGAGAGAGAGAGAAAGGGA: -0.76
UAACUUUAGAGGAGGAUCUGAUGGAUAUGGCAGUGGACGUGGAUUUAGGGAUGGCUAUAAUGGGUAUGGAGGAGGACCUGGAGGUGGCAA: -0.889
AUGGAUGACCCCUCUGUGGGCCCCAAGAUCCCCCAGGCUUUGGAGAAGAUCCUGCAGCUGAAGGAGAGCCGCCAGGAAGAGAUGAAUUCU: -1.92
CACAGACAACACAAACCCACACAGACACAGAGGGAAGGGGUUGGGAUGGGGACAGGGUGCACAGCAGGGCGGGGUAGGACCCCAGCCCCU: -0.386
UCAAGUCCUGUGCUACACAUCGUAUGUACCGAAUCGGGUGGGUGGGAAAAAGGGAAAGUAUUAUGUUACGCCGUUCGGAUCUGCACUUCC: 1.19
UCCUGUGCUACACAUCGUAUGUACCGAAUCGGGCCCCCCGGCCCCCCGGCCCCCCGGGGAAAGUAUUAUGUUACGCCGUUCGGAUCUGCA: -0.987
UAACUUUAGAGGAGGAUCUGAUGGAUAUGGCAGUGAACGUGGAUUUGGGGAUGGCUAUAAUGGGUAUGGAGGAGGACCUGGAGGUGGCAA: -0.779

Single results of other studies
FAM98B (Homo sapiens, UniProt Q52LJ0)
interaction screen (RTRAF (Homo sapiens, UniProt Q9Y224); cross-linking MS; hits only): cross-linked

PhoQ, residues 284 288 289 292 302 303 TLMATV
fold induction (PhoP, residues 12 14 15 18 19 GHCSL (Escherichia coli, UniProt P23836); Sort-seq, item: YFP reporter; E. coli; PhoQ-PhoP variant library, together with: 10 µM Mg2+; relative to: high Mg2+ state, higher = stronger signaling): 18.2

KIF5B (Homo sapiens, UniProt P33176)
interaction screen (KLC2 (Homo sapiens, UniProt Q9H0B6); cross-linking MS; hits only): cross-linked

PDCD11 (Homo sapiens, UniProt Q14690)
cross-linked residues (DDX56 (Homo sapiens, UniProt Q9NY93); cross-linking MS; cell fractions; together with: DSSO): T128 to T91

HSPA9 (Homo sapiens, UniProt P38646)
cross-linked residues (CASP8AP2 (Homo sapiens, UniProt Q9UKL3); cross-linking MS; cell fractions; together with: DSSO): K106 to K1193

Repeated from above (sample 1):
GAUCGAACCUGGUCUUUGUGGAAGAGACAGGAUGCGACUUCCUCGGAGUUUGAUCCAUUUUUCCGUCUCUUUGCAUUCACCAACAAAAUUACUUCUGUGCAUAGUAGAAUCAUUUGGUCU: 0.809 ratio
AAUAUCAACUAAAAUAUCAUAGUUCUGUGGUAGACAUUGUUUUAUAAUGAAAUAACUGCAACCCGAGAAAACUGUAUAAAAACAUUAAAUUGUCAGUAUUUUUGUAAGGUUCCAUUUUGU: 0.482 ratio
AGAGCGUUUGUUAUAAGACGUAACGUAACCUACUGUUCAUGUUUGCUCUGGUCUGAAGUGUUCCGCUGUUGAGCUGGAUUCCUUAGGAGACCAAAUUAAGAUGGCUUAAAUUACAUCUUA: 0.323 ratio
AGCUAUGAUGAGAGCUAUUAUCAUCUGUGGUGGGAAAAGCUAUGUAAAUAGGUAGAUUGUACCGAGAGACUAUCUUGUGUUGUGCCUGUAUGAAUUUUUAAAAGUUGUUGACUGGAUUUU: 0.237 ratio
CCCAACAACACAGUAGUUGGGUCAUCAUAUGUACUUUUUGUCUUAUCGAUUUUCUUCACAACCGCCGGACUUCUGUUUGCUGGCAAAGUCUGUUUACCAGGCUGACGAAUGUCUAAACGG: 0.119 ratio
GAUCCAGGCAGUAAAGAUCCAGAAGAAGAUUACCCCAAAUUUGGACUUUUGGAUCAGGACCUCCGUAACAUUGGUCCUGCUUAUGACAACCAAAAACAGAGCAGUGCUGUGUCUACUAGU: 0.231 ratio
AUCAAGGGUAAAAUUCCAUUCUGAUAUCAAAAUGCAGUAUUCGCACCACUGUGAGCACCUUUCCGAGAGACUGAACAAACAGCGGGAAGCAGGUUUUCUCUGUGACUGUACCAUAGUGAU: 0.246 ratio
